Published values gathered from unrelated publications.
Numbered parts are unrelated; each lists some results of a single study.
Sequence of UniProt P08581 (whole entry, looked up): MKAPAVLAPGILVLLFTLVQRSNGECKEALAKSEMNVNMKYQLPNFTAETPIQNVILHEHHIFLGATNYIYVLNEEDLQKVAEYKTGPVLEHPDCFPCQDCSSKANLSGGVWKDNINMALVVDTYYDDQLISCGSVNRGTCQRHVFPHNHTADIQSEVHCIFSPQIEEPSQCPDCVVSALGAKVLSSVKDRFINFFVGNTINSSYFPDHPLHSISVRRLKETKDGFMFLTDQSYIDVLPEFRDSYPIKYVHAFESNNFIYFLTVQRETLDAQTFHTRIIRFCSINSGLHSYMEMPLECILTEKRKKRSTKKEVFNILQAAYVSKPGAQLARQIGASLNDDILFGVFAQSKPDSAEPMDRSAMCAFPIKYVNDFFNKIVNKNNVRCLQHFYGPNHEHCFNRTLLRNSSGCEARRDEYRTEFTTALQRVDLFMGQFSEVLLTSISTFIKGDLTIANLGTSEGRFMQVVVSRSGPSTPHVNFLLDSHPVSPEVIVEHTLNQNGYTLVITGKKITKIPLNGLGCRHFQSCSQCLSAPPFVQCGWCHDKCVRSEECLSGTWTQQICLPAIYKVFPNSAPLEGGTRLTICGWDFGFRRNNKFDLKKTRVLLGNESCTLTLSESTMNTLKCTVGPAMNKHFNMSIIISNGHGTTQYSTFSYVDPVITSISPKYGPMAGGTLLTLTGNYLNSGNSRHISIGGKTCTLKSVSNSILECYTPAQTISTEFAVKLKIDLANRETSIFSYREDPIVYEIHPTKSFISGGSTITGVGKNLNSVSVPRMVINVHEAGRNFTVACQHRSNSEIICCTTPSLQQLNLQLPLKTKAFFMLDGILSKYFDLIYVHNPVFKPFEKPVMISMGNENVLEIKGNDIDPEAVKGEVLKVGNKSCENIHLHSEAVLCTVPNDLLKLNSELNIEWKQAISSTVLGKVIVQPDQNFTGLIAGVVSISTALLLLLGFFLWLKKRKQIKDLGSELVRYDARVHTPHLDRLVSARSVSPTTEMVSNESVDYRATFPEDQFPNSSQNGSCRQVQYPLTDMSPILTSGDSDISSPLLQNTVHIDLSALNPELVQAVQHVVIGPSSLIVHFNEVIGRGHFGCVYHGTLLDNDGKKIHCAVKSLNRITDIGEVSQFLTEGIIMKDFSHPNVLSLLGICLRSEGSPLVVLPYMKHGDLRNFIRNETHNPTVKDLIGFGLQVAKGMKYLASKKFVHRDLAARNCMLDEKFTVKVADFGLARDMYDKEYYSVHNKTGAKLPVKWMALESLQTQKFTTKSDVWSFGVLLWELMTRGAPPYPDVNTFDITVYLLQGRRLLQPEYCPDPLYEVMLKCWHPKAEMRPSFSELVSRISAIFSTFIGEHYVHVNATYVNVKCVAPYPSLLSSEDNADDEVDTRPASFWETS
Sequence of UniProt P51956 (whole entry, looked up): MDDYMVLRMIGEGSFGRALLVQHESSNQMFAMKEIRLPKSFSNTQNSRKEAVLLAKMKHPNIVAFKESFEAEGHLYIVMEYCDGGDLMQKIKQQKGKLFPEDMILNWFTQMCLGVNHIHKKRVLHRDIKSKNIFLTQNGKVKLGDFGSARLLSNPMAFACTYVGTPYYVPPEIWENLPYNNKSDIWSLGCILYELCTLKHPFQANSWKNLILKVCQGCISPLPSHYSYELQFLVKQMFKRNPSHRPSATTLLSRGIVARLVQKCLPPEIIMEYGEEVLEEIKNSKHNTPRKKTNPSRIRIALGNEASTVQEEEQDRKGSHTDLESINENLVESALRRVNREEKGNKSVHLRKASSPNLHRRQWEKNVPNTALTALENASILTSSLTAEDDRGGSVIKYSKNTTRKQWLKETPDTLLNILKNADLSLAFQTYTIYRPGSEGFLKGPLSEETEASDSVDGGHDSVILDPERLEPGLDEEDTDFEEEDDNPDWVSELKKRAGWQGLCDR
Sequence of UniProt Q6P2M8 (whole entry, looked up): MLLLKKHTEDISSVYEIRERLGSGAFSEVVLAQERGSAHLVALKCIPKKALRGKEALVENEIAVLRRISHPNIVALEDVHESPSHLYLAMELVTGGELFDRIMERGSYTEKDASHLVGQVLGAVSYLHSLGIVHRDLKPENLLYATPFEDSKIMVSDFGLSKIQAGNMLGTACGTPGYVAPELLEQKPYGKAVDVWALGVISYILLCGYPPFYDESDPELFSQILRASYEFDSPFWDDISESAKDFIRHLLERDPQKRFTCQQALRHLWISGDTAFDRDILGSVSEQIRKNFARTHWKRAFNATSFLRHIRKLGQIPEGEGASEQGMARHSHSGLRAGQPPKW
Sequence of UniProt Q9H4B4 (whole entry, looked up): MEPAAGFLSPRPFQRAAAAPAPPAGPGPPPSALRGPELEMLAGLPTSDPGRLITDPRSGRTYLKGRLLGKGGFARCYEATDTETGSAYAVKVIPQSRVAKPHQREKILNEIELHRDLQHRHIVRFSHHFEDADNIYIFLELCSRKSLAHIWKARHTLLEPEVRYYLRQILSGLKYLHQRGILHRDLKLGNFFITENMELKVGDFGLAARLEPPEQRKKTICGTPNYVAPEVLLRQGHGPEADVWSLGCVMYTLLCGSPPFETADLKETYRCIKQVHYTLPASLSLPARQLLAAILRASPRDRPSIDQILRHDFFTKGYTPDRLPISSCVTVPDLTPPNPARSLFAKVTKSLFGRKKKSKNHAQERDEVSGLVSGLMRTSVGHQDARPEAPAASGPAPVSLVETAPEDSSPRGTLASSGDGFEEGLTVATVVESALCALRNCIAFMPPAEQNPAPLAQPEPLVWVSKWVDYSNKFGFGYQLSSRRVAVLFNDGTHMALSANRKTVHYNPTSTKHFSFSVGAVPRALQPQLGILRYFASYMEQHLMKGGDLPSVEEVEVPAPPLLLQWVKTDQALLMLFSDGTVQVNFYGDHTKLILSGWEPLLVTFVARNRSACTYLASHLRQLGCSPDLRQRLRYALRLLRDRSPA
Sequence of UniProt Q96L34 (whole entry, looked up): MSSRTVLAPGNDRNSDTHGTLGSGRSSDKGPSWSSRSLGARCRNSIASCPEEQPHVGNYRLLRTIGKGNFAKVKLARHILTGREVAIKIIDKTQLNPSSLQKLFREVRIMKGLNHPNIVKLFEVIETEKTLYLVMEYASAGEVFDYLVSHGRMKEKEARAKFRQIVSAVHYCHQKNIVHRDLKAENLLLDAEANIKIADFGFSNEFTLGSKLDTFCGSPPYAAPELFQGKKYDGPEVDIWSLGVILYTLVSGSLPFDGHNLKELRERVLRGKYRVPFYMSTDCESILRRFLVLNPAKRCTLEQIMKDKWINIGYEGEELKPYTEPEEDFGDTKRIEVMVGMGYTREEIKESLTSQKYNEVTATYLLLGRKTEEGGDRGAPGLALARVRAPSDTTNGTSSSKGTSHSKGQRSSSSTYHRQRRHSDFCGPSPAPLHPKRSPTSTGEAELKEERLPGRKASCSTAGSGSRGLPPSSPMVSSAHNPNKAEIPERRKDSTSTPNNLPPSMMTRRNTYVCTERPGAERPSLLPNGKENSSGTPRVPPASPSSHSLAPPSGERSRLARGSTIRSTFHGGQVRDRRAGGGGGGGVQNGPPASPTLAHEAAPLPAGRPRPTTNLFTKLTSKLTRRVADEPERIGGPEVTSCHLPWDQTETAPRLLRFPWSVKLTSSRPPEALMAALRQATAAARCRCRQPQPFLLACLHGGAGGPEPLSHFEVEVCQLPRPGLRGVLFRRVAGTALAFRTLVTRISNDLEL
Sequence of UniProt P49761 (whole entry, looked up): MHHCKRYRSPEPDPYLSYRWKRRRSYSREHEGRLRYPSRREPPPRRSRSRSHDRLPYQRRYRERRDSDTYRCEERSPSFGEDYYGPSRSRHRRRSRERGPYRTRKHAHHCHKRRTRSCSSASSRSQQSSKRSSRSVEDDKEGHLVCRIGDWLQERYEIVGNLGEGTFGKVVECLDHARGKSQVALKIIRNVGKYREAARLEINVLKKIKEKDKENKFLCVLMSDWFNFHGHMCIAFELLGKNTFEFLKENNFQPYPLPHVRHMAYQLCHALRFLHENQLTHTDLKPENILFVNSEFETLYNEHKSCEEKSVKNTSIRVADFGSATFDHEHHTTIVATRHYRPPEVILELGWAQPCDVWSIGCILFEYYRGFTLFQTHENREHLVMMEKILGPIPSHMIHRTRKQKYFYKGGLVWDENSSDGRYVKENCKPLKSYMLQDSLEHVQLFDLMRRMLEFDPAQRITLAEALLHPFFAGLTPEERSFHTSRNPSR

Set 1
Organism: Sarcocystis neurona
Effect on: parasite activity
Concentration: 10 µM
Time: 96 h
Structure (SMILES)	activity class
COc1cc(C(=O)NS(=O)(=O)c2ccccc2C)ccc1Cc1cn(C)c2ccc(NC(=O)OC3CCCC3)cc12	inactive
Nc1ncnc2c1ncn2[C@@H]1O[C@H](CO)[C@@H](O)[C@@H]1O	inactive
COc1ccc([C@@H]2Sc3ccccc3N(CCN(C)C)C(=O)[C@@H]2OC(C)=O)cc1	inactive
CCN(CC)C(=S)SSC(=S)N(CC)CC	active
COc1cc(C(=O)NC2CCCNC2)cc(OC)c1OC (stereo not drawn)	inactive

Set 2
Compound: CC(C)n1cnc(-c2ccc(F)cc2)c1-c1ncc(C(=O)Nc2ccc(N3CCN(C)CC3)cc2)[nH]1
Method: phase 2a clinical trial
Host: patients with idiopathic pulmonary fibrosis
Dose: 30 mg once daily
test	setting	patients with treatment-emergent adverse events
refers to: idiopathic pulmonary fibrosis	Grade 1	0%
refers to: C-reactive protein increased	Grade 2	0%
refers to: lumbar vertebral fracture	Grade 1, maximum intensity	0%

Set 3
Structure (SMILES): O=C1Nc2ccc(Br)cc2/C1=C/c1cc2c([nH]1)CCCC2
Effect on: enzyme activity
Action: inhibitor
Concentration: 0.5 µM
Baseline: control
target	remaining activity [%]
Serine/threonine-protein kinase tousled-like 2 (TLK2, Homo sapiens, UniProt Q86UE8)	101
cGMP-dependent protein kinase 2 (PRKG2, Homo sapiens, UniProt Q13237)	92.4
Hepatocyte growth factor receptor (MET, Homo sapiens, UniProt P08581)	81.6
MAP/microtubule affinity-regulating kinase 4 (MARK4, Homo sapiens, UniProt Q96L34)	82.9
Calcium/calmodulin-dependent protein kinase type 1B (PNCK, Homo sapiens, UniProt Q6P2M8)	98.6
Serine/threonine-protein kinase MRCK beta (CDC42BPB, Homo sapiens, UniProt Q9Y5S2)	114
Serine/threonine-protein kinase Nek3 (NEK3, Homo sapiens, UniProt P51956)	86.7
Serine/threonine-protein kinase DCLK2 (DCLK2, Homo sapiens, UniProt Q8N568)	98.2
Dual specificity protein kinase CLK3 (CLK3, Homo sapiens, UniProt P49761)	101
Myosin-IIIb (MYO3B, Homo sapiens, UniProt Q8WXR4)	55.1
Serine/threonine-protein kinase PLK3 (PLK3, Homo sapiens, UniProt Q9H4B4)	97.8
Ribosomal protein S6 kinase alpha-4 (RPS6KA4, Homo sapiens, UniProt O75676)	94.2
Misshapen-like kinase 1 (MINK1, Homo sapiens, UniProt Q8N4C8)	26.4

Set 4
Target: Beta-1 adrenergic receptor (ADRB1, Homo sapiens, UniProt P08588)
Sequence of UniProt P08588 (whole entry, looked up): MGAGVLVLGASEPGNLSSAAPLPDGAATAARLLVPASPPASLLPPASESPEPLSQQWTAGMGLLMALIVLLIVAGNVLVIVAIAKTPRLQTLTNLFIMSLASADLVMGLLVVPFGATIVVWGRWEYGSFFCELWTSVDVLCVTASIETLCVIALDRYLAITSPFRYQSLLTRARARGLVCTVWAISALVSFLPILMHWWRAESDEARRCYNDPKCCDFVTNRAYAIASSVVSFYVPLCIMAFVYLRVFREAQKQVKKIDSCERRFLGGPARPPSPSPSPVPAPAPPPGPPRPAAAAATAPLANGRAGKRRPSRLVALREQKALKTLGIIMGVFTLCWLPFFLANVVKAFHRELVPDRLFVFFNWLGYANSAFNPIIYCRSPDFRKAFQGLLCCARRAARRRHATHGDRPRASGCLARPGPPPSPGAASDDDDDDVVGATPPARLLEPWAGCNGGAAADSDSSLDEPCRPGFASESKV
Action: antagonist
Structure (SMILES)	IC50 [µM]
CN(c1ccccc1)c1cc(=O)c2ccnc(Nc3cccnc3)c2o1	≥ 100
COc1ccc(-c2cc(N3CCCC3)nc(N)n2)c2ccc(C)nc12	≥ 100
Fc1ccc(-c2noc([C@@H]3Cc4[nH]cnc4CN3CCCc3ccccc3)n2)cc1Cl	≥ 100
CCN1CC(C(=O)NCC2CCN(c3ccccc3OC)C2)CC1=O (stereo not drawn)	≥ 100
Cc1nc(CN2CCOCC2C2CCCC2O)nc2ccccc12 (stereo not drawn)	≥ 100
Cc1noc2c(-c3ccc(N4CCOCC4)cc3)cc(-c3cccnc3)nc12	25.1

Single results of other studies
DRD2: D(2) dopamine receptor (DRD2, Homo sapiens, UniProt P14416)
Sequence of UniProt P14416 (whole entry, looked up): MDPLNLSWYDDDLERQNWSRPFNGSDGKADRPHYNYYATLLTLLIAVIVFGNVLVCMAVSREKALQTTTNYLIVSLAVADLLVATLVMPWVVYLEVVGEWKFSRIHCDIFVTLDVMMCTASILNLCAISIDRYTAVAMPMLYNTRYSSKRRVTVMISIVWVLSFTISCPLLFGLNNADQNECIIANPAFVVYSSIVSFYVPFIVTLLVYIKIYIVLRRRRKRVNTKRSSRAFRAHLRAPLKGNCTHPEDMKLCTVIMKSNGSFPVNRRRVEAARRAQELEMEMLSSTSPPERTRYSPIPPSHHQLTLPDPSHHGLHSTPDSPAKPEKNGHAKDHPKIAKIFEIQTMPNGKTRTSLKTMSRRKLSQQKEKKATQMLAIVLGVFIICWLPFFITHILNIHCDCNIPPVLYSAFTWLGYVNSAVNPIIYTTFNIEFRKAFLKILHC
Structure (SMILES)	tested on	test	setting	quantity	value
CC(=O)N1CCC(c2ccc(C(=O)NC3=NCCN3)cc2C(F)(F)F)CC1	DRD2	ligand displacement	10 µM	inhibition	-4.57%
C=CC(=O)Nc1cccc(Nc2nc(Nc3ccc(N4CCN(C(C)=O)CC4)cc3OC)ncc2C(F)(F)F)c1	A-375	–	100 µM, 60 h	viability	6.01%
CCc1ccccc1C(=O)Nc1n[nH]c2c(C)c(F)c(C3C(C#N)=C(C)N(C)C(C)=C3C#N)cc12	DRD2	ligand displacement	10 µM	inhibition	-10.4%

Excerpt of the above (set 1):
Structure (SMILES)	activity class
COc1ccc([C@@H]2Sc3ccccc3N(CCN(C)C)C(=O)[C@@H]2OC(C)=O)cc1	inactive
COc1cc(C(=O)NS(=O)(=O)c2ccccc2C)ccc1Cc1cn(C)c2ccc(NC(=O)OC3CCCC3)cc12	inactive
CCN(CC)C(=S)SSC(=S)N(CC)CC	active
